Published values collected from several papers.
Lines come from different studies, so protocols differ. Values joined by “and” are separate records of one study, mostly repeats; a detail may differ. ± marks the error that the study gave.

SMILES	test	test system	conditions	how to read	measurement	value
CCCCC[C@@H]1NC(=O)[C@@H](C)N(C)C(=O)[C@H](CCCCC)NC(=O)[C@@H](C)N(C)C(=O)[C@H](CCCCC)NC(=O)[C@@H](C)N(C)C(=O)[C@H](CCCCC)NC(=O)[C@@H](C)N(C)C1=O	PAMPA, HPLC-UV		500 µM, pH 7.4		log Papp	-5.31 ± 0.04
CSCC[C@H](N)C(=O)N[C@@H](C)C(=O)N[C@@H](Cc1c[nH]c2ccccc12)C(=O)N[C@@H](Cc1c[nH]cn1)C(=O)N[C@@H](CC(=O)O)C(=O)N[C@@H](CC(=O)O)C(=O)N[C@@H](CCC(=O)O)C(=O)N[C@@H](CCC(=O)O)C(=O)N[C@@H](Cc1ccccc1)C(=O)N[C@@H](C)C(=O)N[C@@H](CCCNC(=N)N)C(=O)N[C@@H](CCCNC(=N)N)C(=O)N[C@@H](CCCNC(=N)N)C(=O)N[C@@H](CCCNC(=N)N)C(=O)NCCCCCC(=O)NCCCCC(NC(=O)CCCCCNC(=O)[C@H](CCCNC(=N)N)NC(=O)[C@H](CCCNC(=N)N)NC(=O)[C@H](CCCNC(=N)N)NC(=O)[C@H](CCCNC(=N)N)NC(=O)[C@H](C)NC(=O)[C@H](Cc1ccccc1)NC(=O)[C@H](CCC(=O)O)NC(=O)[C@H](CCC(=O)O)NC(=O)[C@H](CC(=O)O)NC(=O)[C@H](CC(=O)O)NC(=O)[C@H](Cc1c[nH]cn1)NC(=O)[C@H](Cc1c[nH]c2ccccc12)NC(=O)[C@H](C)NC(=O)[C@@H](N)CCSC)C(=O)NCCCCC(NC(=O)C(CCCCNC(=O)CCCCCNC(=O)[C@H](CCCNC(=N)N)NC(=O)[C@H](CCCNC(=N)N)NC(=O)[C@H](CCCNC(=N)N)NC(=O)[C@H](CCCNC(=N)N)NC(=O)[C@H](C)NC(=O)[C@H](Cc1ccccc1)NC(=O)[C@H](CCC(=O)O)NC(=O)[C@H](CCC(=O)O)NC(=O)[C@H](CC(=O)O)NC(=O)[C@H](CC(=O)O)NC(=O)[C@H](Cc1c[nH]cn1)NC(=O)[C@H](Cc1c[nH]c2ccccc12)NC(=O)[C@H](C)NC(=O)[C@@H](N)CCSC)NC(=O)CCCCCNC(=O)[C@H](CCCNC(=N)N)NC(=O)[C@H](CCCNC(=N)N)NC(=O)[C@H](CCCNC(=N)N)NC(=O)[C@H](CCCNC(=N)N)NC(=O)[C@H](C)NC(=O)[C@H](Cc1ccccc1)NC(=O)[C@H](CCC(=O)O)NC(=O)[C@H](CCC(=O)O)NC(=O)[C@H](CC(=O)O)NC(=O)[C@H](CC(=O)O)NC(=O)[C@H](Cc1c[nH]cn1)NC(=O)[C@H](Cc1c[nH]c2ccccc12)NC(=O)[C@H](C)NC(=O)[C@@H](N)CCSC)C(N)=O (stereo partly drawn)		C57BL/6 mouse female, liver	dose not given, 6 h	reference: total	tissue distribution	10.8% and 5.93% and 5.6%
C[C@H](O)[C@@H](NC(=O)[C@H]1CCCN1C(=O)[C@@H](CCCCN)NC(=O)[C@@H](CO)NC(=O)[C@@H](Cc1ccc(O)cc1)NC(=O)[C@@H](CC(N)=O)NC(=O)CCOCCOCCOCCNC(=O)CN1CCN(CC(=O)O)CCN(CC(=O)O)CCN(CC(=O)O)CC1)C(=O)N[C@H](CC(=O)O)C(=O)N[C@H](CCCNC(=N)N)C(=O)N[C@H](CCC(N)=O)C(=O)N[C@H](Cc1ccc(O)cc1)C(=O)N[C@H](Cc1c[nH]cn1)C(=O)N[C@H](Cc1ccccc1)C(N)=O [gallium-68 labelled]		BALB/c nude mice U-87 MG tumour, fat	intravenous, 1.85 MBq, 0.08333 h, radiolabelled		tissue uptake	2.09 ± 0.49 %ID/g
CN[C@H](CC(C)C)C(=O)N[C@H]1C(=O)N[C@@H](CC(N)=O)C(=O)N[C@H]2C(=N)N[C@H]3C(=O)N[C@H](C(=O)N[C@H](C(=O)NCCC[N+](C)(C)C)c4cc(O)cc(O)c4-c4cc3ccc4O)[C@H](O)c3ccc(c(Cl)c3)Oc3cc2cc(c3O[C@@H]2O[C@H](CO)[C@@H](O)[C@H](O)[C@H]2O[C@H]2C[C@](C)(NCc3ccc(-c4ccc(Cl)cc4)cc3)[C@H](O)[C@H](C)O2)Oc2ccc(cc2Cl)[C@H]1O		mouse	intravenous, 50 mg/kg		half-life	3.3 h
CC[C@H](C)[C@H](NC(=O)[C@H](CCCCN)NC(=O)CNC(=O)[C@H](CC(C)C)NC(=O)[C@H](Cc1ccccc1)NC(=O)[C@H](CCCCN)NC(=O)[C@H](CO)NC(=O)[C@H](Cc1ccccc1)NC(=O)[C@H](Cc1c[nH]c2ccccc12)NC(=O)[C@H](CCC(N)=O)NC(=O)[C@@H](NC(=O)[C@H](Cc1ccccc1)NC(=O)CCCCCNC(=O)CN1CCN(CC(=O)O)CCN(CC(=O)O)CCN(CC(=O)O)CC1)C(C)C)C(=O)N[C@@H](CCC(=O)O)C(=O)N1CCC[C@H]1C(=O)N[C@@H](CC(=O)O)C(=O)N[C@H](C(=O)N[C@@H](CO)C(=O)N[C@@H](CCC(N)=O)C(=O)N[C@H](C(=O)N[C@@H](CCC(N)=O)C(=O)N[C@@H](CC(=O)O)C(=O)N1CCC[C@H]1C(=O)N[C@@H](CC(N)=O)C(=O)N[C@@H](CC(=O)O)C(=O)N[C@@H](CCC(N)=O)C(=O)N[C@@H](Cc1ccc(O)cc1)C(=O)N[C@@H](CCC(=O)O)C(=O)N1CCC[C@H]1C(=O)N[C@@H](Cc1ccccc1)C(=O)O)C(C)C)C(C)C [copper-64 labelled]		GZMB-/- mice, CT26 tumour-bearing, brain	2 h, checkpoint inhibitor-treated		tissue uptake	0.1 ± 0.04 %ID/g
N#[11C]c1ccc(-c2csc(NN=C3CCCC3)n2)cc1		C57BL/6 mice, male, brain	intravenous, 3 MBq, 30 min		radioactivity uptake	0.61 ± 0.05 %ID/g
CC(CCC(=O)NCC(=O)O)C1CCC2C3CCC4CC(OC5OC(C(=O)O)C(O)C(O)C5O)CCC4(C)C3CC(O)C12C (stereo not drawn)		women, T/C genotype, plasma	dose not given, geometric mean		plasma concentration	80.7 ng/mL
O=C1NC2(CC2)COc2ncc(F)cc2[C@H]2COCCN2c2ccn3ncc1c3n2		Sprague-Dawley rat, male, heart	oral, 20 mg/kg/day, 4 weeks		organ weight	1.86 ± 0.378 g
C=Cc1c(C)c2cc3nc(c(CC(=O)[O-])c4[n-]c(cc5nc(cc1[n-]2)C(C)=C5CC)c(C)c4C(=O)[O-])C(CCC(=O)[O-])C3C.[Cu+2].[Na+].[Na+].[Na+] (stereo not drawn)		Wistar rat, female	oral, 500 mg/kg daily, 28 days		serum ALT	33.5 ± 11 U/L
CC(C)[C@@H]1NC(=O)CNC(=O)[C@H](CC(N)=O)NC(=O)[C@H](CCCNC(=N)N)NC(=O)[C@H](Cc2ccc(O)cc2)NC(=O)[C@H](C(C)C)NC(=O)[C@@H](NC(=O)[C@@H](NC(=O)[C@H](CC(N)=O)NC(=O)[C@H](Cc2c[nH]c3ccccc23)NC(=O)[C@H](C)NC(=O)[C@H](Cc2ccccc2)NC(=O)CNC(=O)[C@H](CCCCN)NC(=O)[C@H](Cc2ccccc2)NC(=O)[C@H](Cc2ccccc2)NC(=O)[C@H](CCCCN)NC(=O)OCC2c3ccccc3-c3ccccc32)C(C)C)CSSC[C@@H](C(=O)N[C@@H](Cc2c[nH]cn2)C(=O)N[C@@H](CCCNC(=N)N)C(=O)N[C@@H](CCCNC(=N)N)C(=O)N[C@@H](C)C(=O)N[C@@H](CC(N)=O)C(N)=O)NC(=O)[C@H](C(C)C)NC(=O)[C@H](CCCNC(=N)N)NC1=O		ICR mice, serum	intraperitoneal, 10 mg/kg, day 5		calcium	1.35 ± 0.06 mmol/L
C#Cc1c(F)ccc2cc(O)cc(-c3ncc4c(N5CC6CCC(C5)N6C(=O)OC(C)OC(=O)[C@@H](N)C(C)C)nc(OC[C@@]56CCCN5C[C@H](F)C6)nc4c3F)c12 (stereo partly drawn)	refers to: prodrug	mouse whole blood	1 µM		t1/2	0.578 h
c1ccc(CN2CCCNCCNCCCNCC2)cc1	potentiometry	aqueous 1.0 M KCl	25 °C, L + H+ to HL		log overall protonation constant	11.3
Cc1cc(-c2ccc3ccccc3c2)nnc1NCCN1CCN(C)CC1	metabolic stability	human, liver microsomes	20 min		compound remaining	103%
CC(C)C[C@@H](NC(=O)[C@@H](CCCCN)NC(=O)CNC(=O)CNC(=O)[C@@H]1CSSC[C@H](N)C(=O)NCC(=O)N[C@@H](CCCNC(=N)N)C(=O)N[C@@H](CCCNC(=N)N)C(=O)N[C@@H](C)C(=O)NCC(=O)NCC(=O)N[C@@H](CO)C(=O)N1)C(=O)N[C@H](C)C(=O)N[C@H](CCCCN)C(=O)N[C@H](CC(C)C)C(=O)N[C@H](C)C(=O)N[C@H](CCCCN)C(=O)N[C@H](CCCCN)C(=O)N[C@H](CC(C)C)C(=O)N[C@H](C)C(=O)N[C@H](CCCCN)C(=O)N[C@H](CC(C)C)C(=O)N[C@H](C)C(=O)N[C@H](CCCCN)C(=O)O		mouse	intravenous, 15.0 mg/kg		elimination rate constant	0.47 ± 0.12 h⁻¹
C=CC(=O)Nc1cccc(Cn2ncc3cnc(Nc4cnn(CCOC)c4)nc32)c1		Sprague-Dawley rat male, blood	oral, 180 mg/kg, day 28, 28-day subacute toxicity		mean corpuscular haemoglobin	21.6 ± 1.31 pg
CN1Cc2cc(Cl)ccc2-n2c(nnc2C2CCN(c3cccc(F)n3)CC2)C1		Sprague-Dawley rats male, striatum	intravenous, 0.03 mg/kg, 30 min		concentration	3.14 ± 0.31 ng/mL
NC1CCN(C(=O)Oc2ccc(C3CCCC4(C3)OOC3(O4)C4CC5CC(C4)CC3C5)cc2)CC1 (racemic)		male mouse, plasma	oral, 50 mg/kg		MRT	9.8 h
CC(C)[C@H](NC(=O)[C@@H](NC(=O)[C@H](CCCNC(=N)N)NC(=O)[C@H](CCCNC(=N)N)NC(=O)[C@H](CCCNC(=N)N)NC(=O)[C@H](CCC(N)=O)NC(=O)[C@H](CCCNC(=N)N)NC(=O)[C@H](CCCNC(=N)N)NC(=O)[C@H](CCCCN)NC(=O)[C@H](CCCCN)NC(=O)[C@H](CCCNC(=N)N)NC(=O)CN)[C@@H](C)O)C(=O)N[C@H](C(=O)N[C@@H](CO)C(=O)N1CCC[C@H]1C(=O)O)[C@@H](C)O		ICR mice, female, liver	intranasal, 20 mg/kg daily, 4 weeks		organ weight	1.46 ± 0.235 g

Some of these lines once more:
SMILES	test	test system	conditions	how to read	measurement	value
C#Cc1c(F)ccc2cc(O)cc(-c3ncc4c(N5CC6CCC(C5)N6C(=O)OC(C)OC(=O)[C@@H](N)C(C)C)nc(OC[C@@]56CCCN5C[C@H](F)C6)nc4c3F)c12 (stereo partly drawn)	refers to: prodrug	mouse whole blood	1 µM		t1/2	0.578 h
CCCCC[C@@H]1NC(=O)[C@@H](C)N(C)C(=O)[C@H](CCCCC)NC(=O)[C@@H](C)N(C)C(=O)[C@H](CCCCC)NC(=O)[C@@H](C)N(C)C(=O)[C@H](CCCCC)NC(=O)[C@@H](C)N(C)C1=O	PAMPA, HPLC-UV		500 µM, pH 7.4		log Papp	-5.31 ± 0.04
C[C@H](O)[C@@H](NC(=O)[C@H]1CCCN1C(=O)[C@@H](CCCCN)NC(=O)[C@@H](CO)NC(=O)[C@@H](Cc1ccc(O)cc1)NC(=O)[C@@H](CC(N)=O)NC(=O)CCOCCOCCOCCNC(=O)CN1CCN(CC(=O)O)CCN(CC(=O)O)CCN(CC(=O)O)CC1)C(=O)N[C@H](CC(=O)O)C(=O)N[C@H](CCCNC(=N)N)C(=O)N[C@H](CCC(N)=O)C(=O)N[C@H](Cc1ccc(O)cc1)C(=O)N[C@H](Cc1c[nH]cn1)C(=O)N[C@H](Cc1ccccc1)C(N)=O [gallium-68 labelled]		BALB/c nude mice U-87 MG tumour, fat	intravenous, 1.85 MBq, 0.08333 h, radiolabelled		tissue uptake	2.09 ± 0.49 %ID/g
